{"data": "Assay results of several laboratories", "note": "Protocols differ between the studies behind these lines."}
{"Structure (SMILES)": "O=C(O)CCC(=O)O.[2H]C([2H])([2H])Oc1cc(C)c2[nH]ccc2c1CN1CC[C@@H](C2CC2)C[C@H]1c1ccc(C(=O)O)cc1", "system": "human, plasma", "setting": "300 mg once daily, day 1, multiple ascending dose, median", "Tmax [h]": 4}
{"Structure (SMILES)": "NC1(C(=O)N[C@@H](CCO)c2ccc(Cl)cc2)CCN(c2nc[nH]c3nccc2-3)CC1", "test": "LC-MS/MS, non-compartmental", "system": "human patients, plasma", "setting": "160/480 mg cohort, cycle 0, median, with: enzalutamide", "Tmax [h]": 2.1}
{"Structure (SMILES)": "CN1C(=O)[C@@H](NC(=O)c2nnc(Cc3ccccc3)[nH]2)COc2cccnc21", "system": "human, plasma", "setting": "oral, 50 mg once daily, day 14, median", "Tmax [h]": 3.01}
{"Structure (SMILES)": "C=CCn1c(=O)c2cnc(Nc3ccc(N4CCN(C)CC4)cc3)nc2n1-c1cccc(C(C)(C)O)n1", "system": "human", "setting": "oral, 200 mg once daily, cycle 1 day 17, with: durvalumab 1500 mg IV", "scale": "median", "Tmax [h]": 3}
{"Structure (SMILES)": "CCN1CCN(Cc2ccc(Nc3ncc(F)c(-c4cc(F)c5nc6n(c5c4)[C@H](C)CCC6)n3)nc2)CC1", "system": "human, Phase Ib patients, plasma", "setting": "400 mg, multiple doses, median, with: fulvestrant", "Tmax [h]": 5.94}
{"Structure (SMILES)": "CO[C@H]1C[C@@H]2CC[C@@H](C)[C@@](O)(O2)C(=O)C(=O)N2CCCC[C@H]2C(=O)O[C@H]([C@H](C)C[C@@H]2CC[C@@H](OC(=O)NCCOCCOCCOCCOCCOCCOCCOCCOCCC(=O)N3CCc4cc(Cn5nc(-c6ccc7oc(N)nc7c6)c6c(N)ncnc65)ccc4C3)[C@H](OC)C2)C[C@@H](O)[C@H](C)/C=C(\\C)[C@@H](O)[C@@H](OC)C(=O)[C@H](C)C[C@H](C)/C=C/C=C/C=C/1C", "system": "human, plasma", "setting": "intravenous, 12 mg, cycle 1 day 1, arithmetic mean", "Tmax [h]": 0.91}
{"Structure (SMILES)": "CCn1cc(C(=O)N2CCOCC2)c(=O)c2cc(NC3Cc4ccccc4C3)cnc21", "system": "human, fasted, plasma", "setting": "oral, 900 mg single dose, tablet, median", "Tmax [h]": 1.5}
{"Structure (SMILES)": "Cl.[2H]C([2H])([2H])CC(=O)c1cnc(NC(=O)C2CC2)cc1Nc1cccc(-c2ncn(C([2H])([2H])[2H])n2)c1OC", "test": "median", "system": "human", "setting": "oral, 40 mg twice daily, day 1, fasted, tablet, multiple dose", "Tmax [h]": 2.06}
{"note": "For quick reference, copied from above:"}
{"Structure (SMILES)": "C=CCn1c(=O)c2cnc(Nc3ccc(N4CCN(C)CC4)cc3)nc2n1-c1cccc(C(C)(C)O)n1", "system": "human", "setting": "oral, 200 mg once daily, cycle 1 day 17, with: durvalumab 1500 mg IV", "scale": "median", "Tmax [h]": 3}
